{"data": "Assay results collected from several papers", "note": "Numbered parts are unrelated; each lists some results of a single study."}
{"data": "Block 1", "target": "Histone acetyltransferase KAT6A, both winged helices, GST fusion (KAT6A, Homo sapiens, UniProt Q92794, residues 1-181)", "method": "protein binding microarray", "molecule type": "double-stranded DNA, one strand shown", "matrix": "in vitro", "tested at": "not given", "notes": "8-mer, flanks averaged, mean of 2 arrays, mostly near background", "reference": "not given", "reading": "higher = stronger binding", "Residues (chain)": "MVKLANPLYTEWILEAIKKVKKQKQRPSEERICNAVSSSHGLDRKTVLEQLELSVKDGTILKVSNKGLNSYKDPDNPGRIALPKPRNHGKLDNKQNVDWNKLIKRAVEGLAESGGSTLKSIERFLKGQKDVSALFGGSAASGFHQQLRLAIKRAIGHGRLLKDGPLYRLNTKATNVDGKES"}
{"Sequence": "GCTATCCC", "E-score": -0.000925}
{"Sequence": "GTTTTACA", "E-score": -0.107}
{"Sequence": "AACTCCTC", "E-score": -0.134}
{"Sequence": "CAGAAGGA", "E-score": -0.0809}
{"Sequence": "AGAGATGA", "E-score": -0.131}
{"Sequence": "CGCGAAAG", "E-score": 0.158}
{"Sequence": "CGCTCGGC", "E-score": 0.199}
{"Sequence": "CAGTCCGG", "E-score": 0.0965}
{"Sequence": "CTTGACGA", "E-score": -0.0943}
{"Sequence": "AGCGAGGC", "E-score": 0.0334}
{"Sequence": "ATCGTATG", "E-score": -0.0681}
{"Sequence": "AACCGGGA", "E-score": 0.15}
{"Sequence": "TACGTTGA", "E-score": -0.0821}
{"Sequence": "ACTGGCTC", "E-score": -0.164}
{"Sequence": "CGCTCGGA", "E-score": 0.295}
{"data": "Block 2", "target": "Sal-like protein 4, full length isoform A (SALL4, Homo sapiens, UniProt Q9UJQ4, residues 1-1053)", "method": "universal PBM", "molecule type": "double-stranded DNA, one strand shown", "matrix": "in vitro", "tested at": "600 nM", "notes": "8-mer, flanks averaged, mean of replicates", "reading": "higher = stronger binding", "sequence of UniProt Q9UJQ4 (whole entry, looked up)": "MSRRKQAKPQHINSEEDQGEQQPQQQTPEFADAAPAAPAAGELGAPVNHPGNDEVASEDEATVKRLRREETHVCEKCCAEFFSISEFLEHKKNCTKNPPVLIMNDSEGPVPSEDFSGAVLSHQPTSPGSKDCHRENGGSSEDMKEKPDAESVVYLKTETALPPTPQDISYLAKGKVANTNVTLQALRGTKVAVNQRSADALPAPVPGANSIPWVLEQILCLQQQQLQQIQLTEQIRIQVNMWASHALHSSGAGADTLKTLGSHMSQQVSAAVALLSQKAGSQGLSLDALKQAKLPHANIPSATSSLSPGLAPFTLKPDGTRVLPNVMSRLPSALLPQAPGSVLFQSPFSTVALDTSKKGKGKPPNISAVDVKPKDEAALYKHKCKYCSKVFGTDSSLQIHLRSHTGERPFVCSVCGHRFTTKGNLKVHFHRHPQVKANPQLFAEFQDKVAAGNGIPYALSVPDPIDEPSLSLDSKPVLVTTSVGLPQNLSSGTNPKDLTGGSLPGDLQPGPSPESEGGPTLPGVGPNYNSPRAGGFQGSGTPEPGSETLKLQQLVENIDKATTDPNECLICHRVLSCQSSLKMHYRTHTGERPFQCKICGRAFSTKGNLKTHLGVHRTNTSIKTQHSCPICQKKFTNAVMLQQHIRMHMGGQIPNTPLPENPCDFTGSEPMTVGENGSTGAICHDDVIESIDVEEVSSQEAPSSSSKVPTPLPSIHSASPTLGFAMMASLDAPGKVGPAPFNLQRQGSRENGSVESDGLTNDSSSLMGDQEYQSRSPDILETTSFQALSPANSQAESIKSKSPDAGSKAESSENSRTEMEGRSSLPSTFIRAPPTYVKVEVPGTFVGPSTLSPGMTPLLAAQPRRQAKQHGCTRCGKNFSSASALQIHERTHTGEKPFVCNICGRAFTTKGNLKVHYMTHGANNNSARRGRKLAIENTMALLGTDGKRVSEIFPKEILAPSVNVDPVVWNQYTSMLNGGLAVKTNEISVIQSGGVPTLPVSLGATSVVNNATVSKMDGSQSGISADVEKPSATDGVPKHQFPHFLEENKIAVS"}
{"Sequence": "CGAGTACA", "E-score": 0.0258}
{"Sequence": "AACATGAG", "E-score": 0.152}
{"Sequence": "CACCGGAC", "E-score": -0.377}
{"Sequence": "ACCGACAC", "E-score": -0.137}
{"Sequence": "ACGATGGA", "E-score": "5.5e-05"}
{"Sequence": "CGTTCGTC", "E-score": -0.0885}
{"Sequence": "GATTTGGA", "E-score": 0.179}
{"Sequence": "CCGAAGGA", "E-score": -0.246}
{"Sequence": "GGACCCAA", "E-score": -0.296}
{"Sequence": "CTGTCTAA", "E-score": -0.0232}
{"data": "Block 3", "target": "RNA binding protein fox-1 homolog 2, RRM domain, GST-SBP tag (RBFOX2, Homo sapiens, UniProt O43251-10, residues 100-194)", "method": "RNA Bind-n-Seq", "molecule type": "RNA", "matrix": "in vitro", "tested at": "365 nM", "notes": "natural RNA segment, single round, ends assumed", "reference": "no-protein control", "reading": "higher = stronger binding", "all sequences stand within": "GGGAGUUCUACAGUCCGACGAUC … UGGAAUUCUCGGGUGCCAA", "Construct (chain)": "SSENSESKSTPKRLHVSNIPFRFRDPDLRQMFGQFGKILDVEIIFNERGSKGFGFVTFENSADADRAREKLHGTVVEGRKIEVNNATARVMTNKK"}
{"Sequence": "UCAUACUAUUGAGAGAGAAGUUAUAAGAAAUGCAUUUCAAAAUUUGGUCCCGAAUUCCAAAAUCCCAAUUGUGGCCAUUUUAGUUCUUGCCAUCCUAUUCUUGGCUCAUC", "RBNS enrichment (R)": 0.66}
{"Sequence": "AAUUGCUAUGUUCUCAUGGAUAAACUUUGCCAGCAAAAAUCAGGCUUUUGAACAAUUUUAAUUUUUUGCCUCAUAAAUUUUGUGAAUGCUAUUCAUUAUAGGGCUUGUAU", "RBNS enrichment (R)": 0.895}
{"Sequence": "GUUUGCUGGUCCUCAAACAGGCACUGAAAUCUCAGUAUGGGUAUACGAUUUAAUAAUCGGCCCCUCCCUUCUAUUUGUCGGUUUUAUGUUUCUAUCCUUCAAUAGCUGCA", "RBNS enrichment (R)": 1.55}
{"Sequence": "UCUGUCCUUCCCCCCAGGAAACACAUGUUCAUUUGUGUGAUCAUGUAUAGACCUCAGAACGGAAGAUAGGACUGUAUAUAAUUGUAAUAAAUACCAGUUGCCACUAUUUA", "RBNS enrichment (R)": 0.375}
{"Sequence": "AUUUUGCUUUUGUUUGCUUUUUAUUUUUGUGUAAAAUCUAAAUUCCAGGAGCUAUGGGGUUCAUCCAGGCAUGAAGGCUAAUCCACUCUGAGUAAAGUGUCAGUUGCACA", "RBNS enrichment (R)": 5.34}
{"Sequence": "AGCUAGGAGCUGCCGCCCCCCACCCCUCGCUCCCUGUAAUCACGUCCUUAACUUCCUUCUGCCGACCUCCACCUCUGGUGGUUCCUGCCCUGCCUGGACACAGGGAGGCC", "RBNS enrichment (R)": 0.603}
{"Sequence": "AGGAUUUCCUGUAAGGUUUUUUGCAACCUAUUUAGUUUUUGUCAUUUAAAAUGCCUAACUUCUUAGGUACACAAACCCAUGGCUUUGUGUACUAGAACCAGAGCAAUCCA", "RBNS enrichment (R)": 0.281}
{"Sequence": "GCUGUGCCCGGGGCAGGCCUGACGGGCGGGCAGCUGAGGAUCGCAGAGCCCAUCUGCCUUACAGCCAGCCGGACAGACGUCCUACUACAUGCCACCCCCUCAGAGGACGU", "RBNS enrichment (R)": 0.341}
{"data": "Single results of other studies"}
{"Substance": "PhoQ, residues 284 288 289 292 302 303 GNNTDL", "target": "PhoP, residues 12 14 15 18 19 LHHSG (Escherichia coli, UniProt P23836)", "test": "Sort-seq, refers to: YFP reporter", "test system": "E. coli", "conditions": "PhoQ-PhoP variant library, together with: 10 µM Mg2+", "how to read": "reference: high Mg2+ state, higher = stronger signaling", "measurement": "fold induction", "result": 1.35}
{"note": "For quick reference, copied from above (block 3):"}
{"Sequence": "UCUGUCCUUCCCCCCAGGAAACACAUGUUCAUUUGUGUGAUCAUGUAUAGACCUCAGAACGGAAGAUAGGACUGUAUAUAAUUGUAAUAAAUACCAGUUGCCACUAUUUA", "RBNS enrichment (R)": 0.375}
{"Sequence": "AGCUAGGAGCUGCCGCCCCCCACCCCUCGCUCCCUGUAAUCACGUCCUUAACUUCCUUCUGCCGACCUCCACCUCUGGUGGUUCCUGCCCUGCCUGGACACAGGGAGGCC", "RBNS enrichment (R)": 0.603}
{"Sequence": "GCUGUGCCCGGGGCAGGCCUGACGGGCGGGCAGCUGAGGAUCGCAGAGCCCAUCUGCCUUACAGCCAGCCGGACAGACGUCCUACUACAUGCCACCCCCUCAGAGGACGU", "RBNS enrichment (R)": 0.341}
{"Sequence": "AAUUGCUAUGUUCUCAUGGAUAAACUUUGCCAGCAAAAAUCAGGCUUUUGAACAAUUUUAAUUUUUUGCCUCAUAAAUUUUGUGAAUGCUAUUCAUUAUAGGGCUUGUAU", "RBNS enrichment (R)": 0.895}
